Experimental data of several laboratories.
Parts stem from different laboratories: compare values within a part only. “And” joins repeats or separate records; there may be more than shown. Substitutions count along the parent as printed.

Sample 1
Target: HLA class I histocompatibility antigen, A alpha chain, allele A*25:01 (Homo sapiens, UniProt P04439)
Read-out: peptide-MHC binding
Form: peptide
Concentration: concentration not given
Quantity: binding
RLDARLQVL: inactive
SPLPITLKY: inactive
SSLLWGFYL: inactive
YSLEYFQFVKK: inactive
EAEKQLQQY: inactive
MEDCPNEGV: inactive
LSDAIFDDL: inactive
SPVMGVIGF: inactive

Sample 2
Target: CCNA1, cyclin fold, Cln2 fusion (human)
Method: yeast growth competition, sequencing
Matrix: yeast
Notes: strong parent motif
Relative to: not given
Reading: higher = stronger binding
Quantity: normalised enrichment score
Starting sequence: viral docking peptide; YKVKRRLVFGADD; partner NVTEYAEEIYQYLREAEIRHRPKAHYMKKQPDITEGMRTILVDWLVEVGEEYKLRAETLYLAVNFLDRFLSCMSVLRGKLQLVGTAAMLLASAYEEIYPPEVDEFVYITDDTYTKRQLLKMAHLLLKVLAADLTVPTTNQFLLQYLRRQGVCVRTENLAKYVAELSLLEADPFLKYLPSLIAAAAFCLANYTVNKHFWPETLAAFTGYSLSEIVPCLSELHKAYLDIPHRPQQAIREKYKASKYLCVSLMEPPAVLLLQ
YKVKRSLVFGADD [R6S]: 1.15
YIVKRRLVFGADD [K2I]: 1.17
YKVKRRSVFGADD [L7S]: 0.633
YKVHRRLVFGADD [K4H]: 0.532
YKVKRRLVFSADD [G10S]: 1.07
YKVKRRLVFGCDD [A11C]: 1.17
YKVKFRLVFGADD [R5F]: -0.0435
YKVFRRLVFGADD [K4F]: -0.4

Other studies, line by line
[N-]=[N+]=CC(=O)CC[C@H](N)C(=O)O
haemoglobin (C57BL/6 CES1-/- mouse; intravenous, 1 mg/kg): 8.7 g/dL and 4.9 g/dL and 7.7 g/dL

COC1=CC=C2C3Cc4ccc(OC)c5c4C2(CCN3C)C1O5 (centres unmarked)
remaining compound (human, microsomes or S9; 2 µM, 0.5 h): 82.9%

O=P1(N(CCCl)CCCl)NCCCO1 (centres unmarked)
viability (HaCaT; 100 µM, 60 h): 135%

O=C1N=C(O)N=C(O)C1C1c2ccccc2Oc2nc(O)nc(O)c21 (centres unmarked)
remaining compound (human, microsomes or S9; 2 µM, 0.5 h): 98.7%

CC(=O)N[C@@H](Cc1c[nH]c2ccccc12)C(=O)N[C@@H](CCC(=O)C=[N+]=[N-])C(=O)OC(C)C
haemoglobin (C57BL/6 CES1-/- mouse; intravenous, 1 mg/kg): 6.8 g/dL and 7.5 g/dL and 8.1 g/dL

CC(C)S(=O)(=O)c1ccc2nccc(Nc3ccc4sc(C5CCCC5)nc4c3)c2c1.Cl
survival (L929 RIPK3-/- reexpressing RIPK3 K51A; CCK-8; 1.563 µM): 99% and 94.2% and 97.9% and 98.6% and 96.8%

Picrotoxin
activity (Sarcocystis neurona; HTS; concentration not given): inactive
